Measurements pooled from the literature.
Each numbered part is a random draw from the data of one study; scales do not carry over between parts. Changes are numbered by the printed parent chain.

Set 1 — technique: DHFR PCA, deep sequencing; sample: yeast; added: (+)-ABA 0.11 µM; relative to: wild-type fitted maximum; reading: higher = stronger binding
Target: ABI1, truncated, D143A, DHFR fusion (Arabidopsis thaliana)
Notes: methotrexate growth selection, single substitutions
Parent: PYL1, truncated, DHFR fusion (Arabidopsis thaliana); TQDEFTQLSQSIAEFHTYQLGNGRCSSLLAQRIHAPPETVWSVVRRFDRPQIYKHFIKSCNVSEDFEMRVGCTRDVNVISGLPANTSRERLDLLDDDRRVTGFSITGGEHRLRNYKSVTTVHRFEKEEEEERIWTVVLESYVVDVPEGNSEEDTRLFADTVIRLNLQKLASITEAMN
Substitution | relative binding score
T101F | 65.3%
Y53T | 5.59%
Q51H | 23.6%
V143R | -3.78%
G107P | -2.06%
L138V | 2.16%
L29G | 0.278%
E4C | 25%
L164C | 21.6%
R74H | -1.22%
R24S | 8.39%
E64V | 13.1%
S59L | 0.242%
S171C | 29.3%
D65A | 6.78%
V62D | -3.81%

Set 2 — technique: RNA Bind-n-Seq; form: RNA; sample: in vitro; concentration: not given; relative to: input RNA pool; reading: higher = stronger binding
Target: RING finger protein unkempt homolog, zinc fingers 1-6, GST-SBP tag (UNK, Homo sapiens, UniProt Q9C0B0, residues 30-357)
UniProt Q9C0B0, sequence (30-357, looked up): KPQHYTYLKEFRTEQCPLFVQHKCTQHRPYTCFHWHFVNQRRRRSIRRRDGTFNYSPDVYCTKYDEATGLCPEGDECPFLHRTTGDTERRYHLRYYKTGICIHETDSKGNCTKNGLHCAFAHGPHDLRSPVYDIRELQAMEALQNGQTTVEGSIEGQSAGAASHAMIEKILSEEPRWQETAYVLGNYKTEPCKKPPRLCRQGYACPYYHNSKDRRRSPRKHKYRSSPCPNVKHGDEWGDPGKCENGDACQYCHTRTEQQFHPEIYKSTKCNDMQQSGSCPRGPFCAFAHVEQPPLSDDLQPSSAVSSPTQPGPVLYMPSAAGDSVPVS
Notes: RNA with constant flanks, human and mouse sites, ends assumed
Shared flanks, not repeated: GGGAGUUCUACAGUCCGACGAUC … CAACAGAGGAUUGAGCAUCA
Sequence | bound/input enrichment
GAUACAAAAAGGCUUUCCCGAGAAGAGAAGGGUCGCAGCAGCUGUGGUAGGAAUUUCUGGGUUAGUGGCCUUUCGUCUACAACCAGAGCCACGGAUCUGAAGAACCUGUUUAGCAGAUAU | 0.929 ratio
CAGAAGAGUGCCCUGGUCAAGCGGCUCAAAGGGGCUCUAAUGCUAGAAAAUUUACAGAAACACUCAACACCCCAUGCUGCAUUCCAGCCAAAUUCCCAGAUUGGUGAGGAAAUGAGCCAG | 15.2 ratio
GCUGCCCAGAAGGCAAAGCCAGUUGCUACUGCUCCUAUUCCUGGUACUCCAUGGUGUGUCGUUUGGACUGGUGAUGAGCGGGUCUUCUUUUAUAAUCCCACCACUCGUCUUUCUAUGUGG | 0.107 ratio
ACAGACAUUCGCUGCCCCUUUGAAAAACGAAGAGAUGCAGCAUGUGUGUUUUGGGACAAUGUAGUAUACAUUUUGGGAGGUUCUCAGCUUUUCCCCAUAAAGCGAAUGGAUUGCUACAAU | 0.159 ratio
CUCUUCGAGGCCAUCCUGCAGUUCCAGAUGAACCAUAGCGUGCUUCAGCAGAAGGCCCGAGACAUGUAUGCAGAGGAGCGGAAGAGGCAGCAGCUGGAGAGGGACCAGGCUACAGUGACA | 0.124 ratio
GAACCCUAGCACAAAUUUGCUUUGGGAUUUUCUUUUCUGGAAAAAAAAAAUAAAAGAAAUAGUACAUUGAAAACAAAUGAAUUCUCAACUCCUACGGUUCAUGUAGAGUUUAGAGAAAAU | 6.07 ratio
ACCCUGGAAGACCCUUGGAUUGGGAGUGAGAGUGACAAAUUUAUCCUCUUGGGCUAUCUCGACCAGCUGCGUAAAGAUCCAGCUCUUCUGUCCUCUGAAGCAGUGCUUCCUGACCUGACC | 0.222 ratio
GCAGAGAUGGAGAACAUUAAGGCAAUUGCCACAGUCUCUGAGAAUACUAAGCAAGAAGCUAUAGAUGAAGUUAAAAGGCAAUGGAGAGAAGAAGUUGCUUCACUUCAGGCUAUAAUGAAA | 0.476 ratio
CAAAUUCUGAUUUUAUUUUGCAUCUUAAUUGCCAUGUCUCUUGUGUGUUCUGUGGGCUCAGCCAUUUGGAACCGAAGGCAUUCCGGGAAAGACUGGUACCUCCAUCUACACUAUGGUGGC | 0.261 ratio
ACAGACACGCUGGACUGUUCUUAAAUGCAAACAGCAAGACAUGUAUUCUUAAUAUGUAAUUUGUGAUAUUUGAAAAUAAUGUUUUAAGGUGUAUCCAAGCUACAUAUGUAAUGUAGGAGG | 0.221 ratio
CUGAUAAGUCCAGAUGGACUGAUGGACAUCUGUUGAUCUAUGUGUAACUUCUAAAAUUGGUAUCGUAUCCACAGAGUGUAUAAUUUAAACUAACCACAGAGCUUUACAUCUUCAUUUCGA | 0.123 ratio

Set 3 — technique: universal PBM; form: double-stranded DNA, one strand shown; sample: in vitro; concentration: not given; reading: higher = stronger binding
Target: Sal-like protein 4, full length isoform B (SALL4, Homo sapiens, UniProt Q9UJQ4-2, residues 1-616)
Notes: 8-mer, flanks averaged, mean of replicates
Target sequence (chain): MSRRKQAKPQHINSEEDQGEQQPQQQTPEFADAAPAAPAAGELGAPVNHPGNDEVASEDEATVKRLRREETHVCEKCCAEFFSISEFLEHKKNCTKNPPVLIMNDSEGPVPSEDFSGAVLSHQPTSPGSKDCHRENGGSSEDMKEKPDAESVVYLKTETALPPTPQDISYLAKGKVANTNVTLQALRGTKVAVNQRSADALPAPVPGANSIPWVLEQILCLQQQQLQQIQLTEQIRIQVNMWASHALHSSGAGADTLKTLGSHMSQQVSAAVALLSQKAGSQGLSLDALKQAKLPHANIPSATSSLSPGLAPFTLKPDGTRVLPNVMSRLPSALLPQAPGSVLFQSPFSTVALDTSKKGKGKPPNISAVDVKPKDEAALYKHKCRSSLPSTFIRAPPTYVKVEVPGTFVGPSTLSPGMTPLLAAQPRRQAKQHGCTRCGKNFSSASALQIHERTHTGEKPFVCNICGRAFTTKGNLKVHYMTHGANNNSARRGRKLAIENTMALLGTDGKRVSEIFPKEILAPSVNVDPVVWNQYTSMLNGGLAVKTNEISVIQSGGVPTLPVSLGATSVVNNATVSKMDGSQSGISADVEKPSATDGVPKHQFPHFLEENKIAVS
Sequence | E-score
ACGATACA | 0.113
ACGGGAGG | -0.101
ATAGGAGA | 0.0502
CCCTGAGC | -0.311
GCCTCCCA | -0.256
GCCGAAGA | -0.138
CCCATATC | 0.155
GAGTCGCC | -0.37
ACACATGG | 0.0406
AACTTACC | 0.04
ATAGTAAC | 0.213
ACTGTCGC | -0.19
TACCCGCA | -0.122
CGACCCTA | -0.152
ATTAAAAG | 0.276
CTTCCAAG | -0.062
AGTGCATA | 0.147
GCCCACCC | -0.137
CCAGCCAC | -0.111
ACCACTGG | -0.0309
CCATCTTC | 0.0745
CGGCACAC | -0.243
CTACGGGC | -0.32
AGATAGCA | 0.0799
CAGCCGCG | -0.332

Set 4 — target: CCNB3, cyclin fold, Cln2 fusion (human); technique: yeast growth competition, sequencing; sample: yeast; notes: weak parent motif; relative to: not given; reading: higher = stronger binding
Parent: E2F8 docking peptide (human); FVPQRKLEVSTED
Substitution | normalised enrichment score
FVPQRKLEVSTAD [E12A] | 0.0495
FVPQRKLEVSTEA [D13A] | 0.0712
FVPQAKLEVSTED [R5A] | 0.136
FVPQRKLAVSTED [E8A] | 0.195
FVPQRKLEVSAED [T11A] | 0.0986
FVPQKKLEFSTED [R5K V9F] | 0.128
FAPQRKLEVSTED [V2A] | 0.041
FVPQKKLEVSTED [R5K] | -0.101

Set 5 — technique: RNA Bind-n-Seq; form: RNA; sample: in vitro; concentration: 365 nM; relative to: no-protein control; reading: higher = stronger binding
Target: RNA binding protein fox-1 homolog 2, RRM domain, GST-SBP tag (RBFOX2, Homo sapiens, UniProt O43251-10, residues 100-194)
Notes: natural RNA segment, single round, ends assumed
Shared flanks, not repeated: GGGAGUUCUACAGUCCGACGAUC … UGGAAUUCUCGGGUGCCAA
Residues (chain): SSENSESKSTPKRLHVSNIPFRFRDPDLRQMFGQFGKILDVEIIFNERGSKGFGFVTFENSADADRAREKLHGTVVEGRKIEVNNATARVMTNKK
Sequence | RBNS enrichment (R)
AACAUACUUUUCAGUUCCCGAGAGACCACCUAAGUAAGAUGACAUUUCUGACAGGCGGGUGCCAGUCUGCACUGCCCGCAGUGAGUGCAGGUUCUGUUUUUGAGUUUGGU | 0.796
GGCAUGAGGCACUGUCACUUGCUUAGUACAAAGUCCUGGGCUGGAGAGAUGGCUCAGUGGUUAAGAGCACCGACUGCUCUUCCAGAGGUCCUGUGUUCAAUUCCCAGCAA | 0.727
UUCAUAAUAUACAGGGGCAGCUGCCAAAUUGAUGUAUUAUAAUAUUGUGGUUUCUGUUUCUUGAGAAAAAUUUUUUGUUAUUUUUACAUCUAACAGAGGAAAAAAAAUUU | 0.7
UCCCCCAUUCUGCUGCCUUUGGGACACUGUUUUCGUUAAACUUGGUCUUGGCUGCAUUCUUUUUUUUCCCUCGUGGGGUUCAAAAGAAUAAACAUUUUCUUACUGAUAAA | 0.781
GUGCACACUCGGAUUUGCUACGUUUCUAUAUAUCUUGAAGCUAAAUGUAUAUAUGAGUAGUUUGCCAUGAGAUAACACAGUGUAAACAGUAGACACCCAGAAAUCGUGAC | 0.413
ACAUAGUUAUUCAGAUUUAGGACCAGUAAGGAUAGAACUUUCUCUUAUUUAUGAAAAAAAAUGCUAAUAAUUUUGGGGCAGUUUUUUCCUUUAAUUAUUUUUUUCAAUUU | 1.64
GGAGACUCACUCUGUUGCCCAGACUGGAGUGCAGUGGCACGAUCUUGGCUUACUACAACCUCCGCCUCCUGGGUUCAAGCGAUCCUCCUGCCUCAGCCCCCCACUAGCUG | 0.581
UGUGAGCUCAGAAUUACUUUAAAAGGAGGUAACAGCCAGCCAUUACACCUAAAUUUAAUUUAUUUUAUUAAAAUAACAUAAUUGAGGGACCAUCAGAUAACUGUAUUUUG | 0.677
CUGACCUGCCACGCCCUACAUGGUCCCCUGUGUAGCUUGCUAGCCUUGGGGGCCUGUCACUUGCCAAAGUAACAUUCCUCUCUUGGGCCAAAAUGAAUGCUGACUCCUGA | 0.746
AAUCUUUUACCUUUUAAACAACCAGGAUAGAGAACCUAUUGGAGUUUGCAUUGUUGAUGACAGGUUCACAAUAAAGUGACGUUCUGGUGGAGGUAGAGUGAAAUGUUUUU | 0.416
UCAAGGGCAUGAGCGGUGGAUACAGAAGUAGACAUUUUAACAAGAAGAUGAAUGGCGUCUGUGGGUUGCUAACUGAACUUUGAAGACCCGCUGCAAAACGCGCAGAUGUG | 1.28
UGCUCAGUUAGUUGUUGGUUAUUUAAAGCACACUCAGUUUGCACUCAUUUCCCCUAAACAACUGGCACAGCAGGUUGACCAUCCUUAAACUGCUGUGAAACAUGCCACGU | 0.248

Repeated from above (set 2):
Sequence | bound/input enrichment
GAUACAAAAAGGCUUUCCCGAGAAGAGAAGGGUCGCAGCAGCUGUGGUAGGAAUUUCUGGGUUAGUGGCCUUUCGUCUACAACCAGAGCCACGGAUCUGAAGAACCUGUUUAGCAGAUAU | 0.929 ratio
GAACCCUAGCACAAAUUUGCUUUGGGAUUUUCUUUUCUGGAAAAAAAAAAUAAAAGAAAUAGUACAUUGAAAACAAAUGAAUUCUCAACUCCUACGGUUCAUGUAGAGUUUAGAGAAAAU | 6.07 ratio
GCAGAGAUGGAGAACAUUAAGGCAAUUGCCACAGUCUCUGAGAAUACUAAGCAAGAAGCUAUAGAUGAAGUUAAAAGGCAAUGGAGAGAAGAAGUUGCUUCACUUCAGGCUAUAAUGAAA | 0.476 ratio
ACAGACAUUCGCUGCCCCUUUGAAAAACGAAGAGAUGCAGCAUGUGUGUUUUGGGACAAUGUAGUAUACAUUUUGGGAGGUUCUCAGCUUUUCCCCAUAAAGCGAAUGGAUUGCUACAAU | 0.159 ratio
